{"data": "Results gathered from unrelated publications", "organism": "Escherichia coli", "note": "Lines come from different studies, so protocols differ. ± marks the error that the study gave."}
{"Compound": "COc1cc2c(=O)c(C(=O)NCCNCCO)cn(Cc3ccccc3)c2cc1OCc1cccc(Cl)c1", "system": "ATCC 25922", "how to read": "≥80% growth inhibition", "MIC": "< 0.25 µg/mL"}
{"Compound": "CC[C@H](C)[C@H](NC(=O)[C@@H](CCCNC(=N)N)NC(=O)[C@H](CCCNC(=N)N)NC(=O)[C@H](CCCN)NC(=O)[C@H](Cc1c[nH]c2ccccc12)NC(=O)[C@H](CCCNC(=N)N)NC(=O)[C@@H]1CCCN1C(=O)[C@H](CCCNC(=N)N)NC(=O)[C@@H]1CCCN1C(=O)[C@H](CC(C)C)NC(=O)[C@H](Cc1ccc(O)cc1)NC(=O)[C@@H]1CCCN1C(=O)[C@@H]1CCCN1C(=O)[C@H](CCCCN)NC(=O)[C@H](CC(=O)O)NC(=O)[C@@H](N)C(C)C)C(=O)N[C@@H](Cc1ccc(O)cc1)C(=O)N[C@@H](CC(N)=O)C(=O)N[C@H](CCCNC(=N)N)C(N)=O", "assay": "broth microdilution", "system": "BW25113", "conditions": "18 h", "MIC": "8 µg/mL"}
{"Compound": "Cc1cc(N)c2cc(NC(=O)c3ccc4c(-c5cccc(N)c5)cccc4c3)ccc2n1", "system": "hyperporinated wild type", "MIC": "> 400 µM"}
{"Compound": "CC[C@@H](C)[C@@H](NC(=O)[C@@H](C)NC(=O)[C@H](NC(=O)[C@@H](CC(=O)O)NC(=O)[C@@H](CCCCN)NC(=O)[C@@H](CO)NC(=O)[C@H](NC(=O)[C@@H](CC(N)=O)NC(=O)[C@@H](C)NC(=O)[C@H](NC(=O)[C@@H](CCC(=O)O)NC(=O)[C@@H](CCCCN)NC(=O)[C@H](NC(=O)[C@H](NC(=O)[C@@H](Cc1c[nH]cn1)NC(=O)[C@@H](CCCCN)NC(=O)[C@H](NC(=O)[C@@H](CCCCN)NC(=O)[C@@H](CCCCN)NC(=O)[C@H](NC(=O)[C@@H](CC(C)C)NC(=O)[C@@H](CCCCN)NC(=O)[C@@H](CC(N)=O)NC(=O)[C@@H](Cc1ccccc1)NC(=O)[C@@H](CCCNC(=N)N)NC(=O)[C@@H](CCCCN)NC(=O)[C@@H](CCCNC(=N)N)NC(=O)[C@@H](Cc1ccccc1)NC(=O)CN)C(C)C)C(C)C)[C@H](C)O)[C@H](C)CC)[C@H](C)O)C(C)C)C(C)C)C(=O)N[C@@H](C(=O)N[C@H](C)C(=O)NCC(=O)N[C@H](CO)C(=O)NCC(=O)N[C@@H](C(=O)N[C@H](C)C(=O)N[C@@H](C(=O)NCC(=O)N[C@H](C)C(=O)N[C@H](C)C(=O)N[C@H](CCSC)C(N)=O)C(C)C)C(C)C)C(C)C", "system": "isolate RKI 6 A-6, CAMHB", "MIC": "16 µg/mL"}
{"Compound": "CO[C@@H](C(N)=O)[C@H](NC(=O)c1ccc(NC(=O)c2ccc([N+](=O)[O-])cc2)cc1)C(=O)Nc1ccc(C(=O)Nc2ccc(C(=O)Nc3ccc(C(=O)O)cc3)c(O)c2OC(C)C)cc1", "system": "K12 ΔtolC", "MIC": "0.125 µg/mL"}
{"Compound": "CC[C@H](C)[C@H](NC(=O)[C@H](CCN)NC(=O)CCCCCCCCCCCNC(=O)CCCCCO)C(=O)N[C@@H](CCN)C(=O)N[C@H](Cc1ccccc1)C(=O)N[C@@H](CC(C)C)C(=O)N[C@@H](CCN)C(=O)N[C@@H](C(=O)N[C@@H](CC(C)C)C(=O)N[C@@H](CO)C(N)=O)C(C)C", "conditions": "24 h, 37 °C", "MIC": "12.5 µM"}
{"Compound": "CCCCCCCCCCCC[S+]([O-])CC1OC(OC2C(N)CC(N)C(OC3OC(CN)C(O)CC3N)C2O)C(O)C(N)C1O (mixture of isomers)", "system": "BL21(DE3) AAC(6')/APH(2'')", "MIC": "> 150 µg/mL"}
{"Compound": "CC(C)C[C@H](NC(=O)[C@H](Cc1ccc(O)cc1)NC(=O)[C@@H]1CCCN1C(=O)[C@H](CCCNC(=N)N)NC(=O)[C@@H]1CCCN1C(=O)[C@H](CCCCN)NC(=O)[C@H](CC(=O)O)NC(=O)[C@@H]1CCCN1C(=O)[C@H](CCCNC(=N)N)NC(=O)C1(N)CCCCC1)C(=O)N1CCC[C@H]1C(=O)N[C@@H](CCCNC(=N)N)C(=O)N1CCC[C@H]1C(=O)N[C@@H](CCCNC(=N)N)C(=O)N1CCC[C@H]1C(=O)N1CCC[C@H]1C(=O)N[C@@H](CCCNC(=N)N)C(=O)N1CCC[C@H]1C(=O)N[C@H](C(=O)N[C@@H](CCCNC(=N)N)C(=O)N[C@@H](CSCc1ccccc1CSC[C@H](NC(=O)[C@H](CCCNC(=N)N)NC(=O)[C@@H](NC(=O)[C@@H]1CCCN1C(=O)[C@H](CCCNC(=N)N)NC(=O)[C@@H]1CCCN1C(=O)[C@@H]1CCCN1C(=O)[C@H](CCCNC(=N)N)NC(=O)[C@@H]1CCCN1C(=O)[C@H](CCCNC(=N)N)NC(=O)[C@@H]1CCCN1C(=O)[C@H](CC(C)C)NC(=O)[C@H](Cc1ccc(O)cc1)NC(=O)[C@@H]1CCCN1C(=O)[C@H](CCCNC(=N)N)NC(=O)[C@@H]1CCCN1C(=O)[C@H](CCCCN)NC(=O)[C@H](CC(=O)O)NC(=O)[C@@H]1CCCN1C(=O)[C@H](CCCNC(=N)N)NC(=O)C1(N)CCCCC1)C(C)C)C(=O)NN)C(=O)NN)C(C)C", "assay": "bacterial growth", "system": "ATCC 25922, 100% Mueller-Hinton broth", "conditions": "90 min, 37 °C, strain ATCC 25922", "MIC": "8.5 ± 0.7 µg/mL"}
{"Compound": "CC1C(=NOCc2cn(-c3ccccc3)nn2)C(C)C(c2ccc(Br)cc2)OC1c1ccc(Br)cc1 (centres unmarked)", "assay": "microbial growth, broth dilution", "system": "MTCC443", "conditions": "24 h", "MIC": "6.3 µg/mL"}
{"Compound": "CC[C@H](C)[C@H](NC(=O)[C@H](CCCCN)NC(=O)[C@H](CCC(=O)O)NC(=O)[C@H](CO)NC(=O)[C@H](CCCNC(=N)N)NC(=O)[C@@H](N)CO)C(=O)N[C@H](C(=O)N[C@@H](Cc1c[nH]cn1)C(=O)N[C@@H](CCC(N)=O)C(=O)N[C@@H](CCCNC(=N)N)C(=O)N[C@@H](CC(C)C)C(=O)N[C@@H](Cc1ccccc1)C(N)=O)C(C)C", "assay": "broth microdilution", "system": "Mueller Hinton broth", "MIC": "> 400 µg/mL"}
{"Compound": "CCCCCCCCCCCCCCCCC(=O)N[C@@H](CCCCN)C(=O)N[C@@H](CCCCN)C(=O)N(CCCCN)CC(=O)N[C@@H](CCCCN)C(=O)N[C@@H](CCCCN)C(N)=O", "assay": "broth microdilution", "system": "K12, water pH 7", "conditions": "18 h, 37 °C", "MIC": "8 µg/mL"}
{"note": "Repeated from above:"}
{"Compound": "CCCCCCCCCCCC[S+]([O-])CC1OC(OC2C(N)CC(N)C(OC3OC(CN)C(O)CC3N)C2O)C(O)C(N)C1O (mixture of isomers)", "system": "BL21(DE3) AAC(6')/APH(2'')", "MIC": "> 150 µg/mL"}
